Measured values collected from several papers.
Each line is one published result; not all experiments were run side by side.
Effect on: DPPH scavenging

C[C@@H]1O[C@@H](OC(=O)/C=C/c2ccc(O)c(O)c2)[C@H](OC(=O)/C=C/c2ccc(O)c(O)c2)[C@H](O)[C@H]1O  IC50 (30 min): 18.2 µg/mL
CCCCn1cc(C(=O)O)c(=O)c2cc(F)c(Nc3ccc(OC)cc3)c(N)c21  IC50 (absorbance; 30 min): 277 µM
Oc1c(Br)ccc2cccnc12  IC50 (absorbance; 30 min): 597 µM
CC(=O)C1=C(C)NC(=O)NC1c1ccc(C)cc1 (stereo not shown)  IC50: 214 µM
CC(C)(C)c1ccc(-c2nnc(S)o2)cc1  IC50: 56.9 µM
CCCCn1cc(C(=O)O)c(=O)c2cc(F)c(Nc3ccc(OC)cc3OC)c(N)c21  IC50 (absorbance; 30 min): 251 µM
C=C(CO)C(=O)O[C@H]1CC(=C)[C@@H]2C[C@H](O)[C@](O)(CCl)[C@@H]2[C@H]2OC(=O)C(=C)C12 (stereo partly shown)  IC50 (absorbance): ~121 µg/mL
CC(=O)C1=C(C)NC(=O)NC1c1ccc([N+](=O)[O-])cc1 (stereo not shown)  IC50: 136 µM
N#C/C(=C\c1cn(-c2ccccc2)nc1-c1ccc(Cl)cc1Cl)c1nc2ccccc2[nH]1  IC50 (absorbance): 249 µM
Fc1ccc2[nH]c(-c3ccco3)nc2c1  IC50 (absorbance): 1.4 µM
COc1ccc(C2NC(=O)NC(C)=C2C(C)=O)cc1 (stereo not shown)  IC50: 53.1 µM
COc1cc(CN2CCN(c3ccc(OC(F)(F)F)cc3)CC2)c2cc3[n+](cc2c1O)CCc1cc2c(cc1-3)OCO2  IC50 (absorbance; 30 min): 21.1 µg/mL
CC(=NNC(=S)NN=C(C(=NO)c1ccccc1)c1ccccc1)c1ccccc1  IC50 (absorbance; 30 min): 11.6 µM
Cc1nnc2c3c(-c4ccc5ccccc5n4)cc(-c4ccccc4)nc3n3c(C)nnc3n12  IC50 (absorbance; 30 min): 120 µM
Sc1nnc(-c2ccccc2Cl)o1  IC50: 74.1 µM
COc1cc(O)c2c(=O)c(O[C@@H]3O[C@H](CO)[C@@H](O)[C@H](O)[C@H]3O[C@@H]3O[C@H](CO)[C@@H](O)[C@H](O)[C@H]3O)c(-c3ccc(O)cc3)oc2c1  IC50 (absorbance): 468 µM
Cc1ccc(-c2nc3cc(Cl)ccc3[nH]2)o1  IC50 (absorbance): 1.46 µM
CCCCSc1nnc(-c2cc(Cl)ccc2Cl)o1  IC50: 64.2 µM
Clc1ccc2[nH]c(-c3ccco3)nc2c1  IC50 (absorbance): 1.39 µM
COc1cc(CN2CCN(c3ccc(C(F)(F)F)cc3)CC2)c2cc3[n+](cc2c1O)CCc1cc2c(cc1-3)OCO2  IC50 (absorbance; 30 min): 23.9 µg/mL
O=C(O)/C=C/c1ccc(O)cc1  IC50: 69 µg/mL
N#C/C(=C\c1cn(-c2ccccc2)nc1-c1ccc(Cl)cc1)c1nc2ccccc2[nH]1  IC50 (absorbance): 82.4 µM
CCCCSc1nnc(-c2cc([N+](=O)[O-])ccc2Cl)o1  IC50: 44.6 µM
COc1cc(/C=C/C(=O)O)ccc1O  IC50 (absorbance; 30 min): 15.6 µg/mL
CCCCn1cc(C(=O)O)c(=O)c2cc(F)c(Nc3cccc(OC)c3)c([N+](=O)[O-])c21  IC50 (absorbance; 30 min): 4090 µM
CC(=O)C1=C(C)NC(=O)NC1c1ccc(Br)cc1 (stereo not shown)  IC50: 149 µM
CCCCn1cc(C(=O)O)c(=O)c2cc(F)c3c(nnn3-c3ccc(OC)cc3)c21  IC50 (absorbance; 30 min): 193 µM
N#C/C(=C\c1cn(-c2ccccc2)nc1-c1ccc([N+](=O)[O-])cc1)c1nc2ccccc2[nH]1  IC50 (absorbance): 94.6 µM
